Measured values gathered from unrelated publications.
Numbers after ± are the reported error.
Oprd1: Delta-type opioid receptor (Oprd1, Mus musculus, UniProt P32300)
Chain of UniProt P32300 (whole entry, looked up): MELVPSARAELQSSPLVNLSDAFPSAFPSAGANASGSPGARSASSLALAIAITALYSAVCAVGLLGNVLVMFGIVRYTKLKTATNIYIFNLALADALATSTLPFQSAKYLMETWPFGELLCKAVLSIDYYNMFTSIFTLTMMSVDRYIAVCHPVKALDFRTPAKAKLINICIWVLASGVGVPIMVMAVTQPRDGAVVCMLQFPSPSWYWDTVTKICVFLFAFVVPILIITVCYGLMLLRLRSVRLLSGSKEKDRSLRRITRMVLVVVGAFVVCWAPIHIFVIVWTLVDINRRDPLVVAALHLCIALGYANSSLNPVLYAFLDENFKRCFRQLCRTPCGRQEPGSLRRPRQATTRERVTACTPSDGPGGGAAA
Ephx2: Bifunctional epoxide hydrolase 2 (Ephx2, Mus musculus, UniProt P34914)
Chain of UniProt P34914 (whole entry, looked up): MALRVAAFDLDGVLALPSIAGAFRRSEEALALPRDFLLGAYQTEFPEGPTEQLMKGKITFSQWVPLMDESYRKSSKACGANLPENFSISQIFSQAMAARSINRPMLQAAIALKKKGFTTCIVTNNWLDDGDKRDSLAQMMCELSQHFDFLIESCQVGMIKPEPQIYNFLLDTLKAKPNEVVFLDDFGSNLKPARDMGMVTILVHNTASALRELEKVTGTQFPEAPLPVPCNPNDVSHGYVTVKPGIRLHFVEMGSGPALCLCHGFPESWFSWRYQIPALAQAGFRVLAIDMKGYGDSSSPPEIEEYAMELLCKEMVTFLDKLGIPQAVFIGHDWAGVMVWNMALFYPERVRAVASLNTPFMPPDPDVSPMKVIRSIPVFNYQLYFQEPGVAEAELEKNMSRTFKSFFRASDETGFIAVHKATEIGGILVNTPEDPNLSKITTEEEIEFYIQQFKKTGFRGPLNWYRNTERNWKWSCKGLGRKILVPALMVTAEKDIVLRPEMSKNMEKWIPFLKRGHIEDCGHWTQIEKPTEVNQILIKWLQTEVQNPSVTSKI
Chain of UniProt P35372 (whole entry, looked up): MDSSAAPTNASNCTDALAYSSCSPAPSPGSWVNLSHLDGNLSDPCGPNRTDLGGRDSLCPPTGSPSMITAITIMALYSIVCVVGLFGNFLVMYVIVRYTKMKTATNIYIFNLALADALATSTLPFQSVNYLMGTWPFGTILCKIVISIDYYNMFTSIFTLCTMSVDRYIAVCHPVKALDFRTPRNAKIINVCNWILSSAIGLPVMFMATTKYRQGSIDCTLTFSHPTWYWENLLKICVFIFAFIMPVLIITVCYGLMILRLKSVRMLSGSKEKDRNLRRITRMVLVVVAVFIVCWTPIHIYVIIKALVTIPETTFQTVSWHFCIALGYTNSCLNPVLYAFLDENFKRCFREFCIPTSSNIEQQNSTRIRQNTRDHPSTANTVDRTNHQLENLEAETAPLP
Chain of UniProt O00519 (whole entry, looked up): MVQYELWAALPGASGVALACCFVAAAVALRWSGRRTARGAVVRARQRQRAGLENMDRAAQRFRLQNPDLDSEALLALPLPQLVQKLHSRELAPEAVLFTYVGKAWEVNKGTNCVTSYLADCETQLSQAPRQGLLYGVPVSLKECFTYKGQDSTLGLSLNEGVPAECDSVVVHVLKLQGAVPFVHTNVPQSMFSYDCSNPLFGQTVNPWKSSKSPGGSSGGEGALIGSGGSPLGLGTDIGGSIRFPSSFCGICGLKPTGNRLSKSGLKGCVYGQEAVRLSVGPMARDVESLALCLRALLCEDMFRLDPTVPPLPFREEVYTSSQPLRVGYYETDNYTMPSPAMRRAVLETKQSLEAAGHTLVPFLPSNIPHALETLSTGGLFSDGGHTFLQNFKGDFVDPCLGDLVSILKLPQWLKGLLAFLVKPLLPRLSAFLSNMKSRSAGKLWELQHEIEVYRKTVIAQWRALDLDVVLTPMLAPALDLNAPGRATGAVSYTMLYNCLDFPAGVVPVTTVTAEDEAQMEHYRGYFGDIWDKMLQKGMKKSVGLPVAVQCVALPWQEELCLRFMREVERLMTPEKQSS
Chain of UniProt P34913 (whole entry, looked up): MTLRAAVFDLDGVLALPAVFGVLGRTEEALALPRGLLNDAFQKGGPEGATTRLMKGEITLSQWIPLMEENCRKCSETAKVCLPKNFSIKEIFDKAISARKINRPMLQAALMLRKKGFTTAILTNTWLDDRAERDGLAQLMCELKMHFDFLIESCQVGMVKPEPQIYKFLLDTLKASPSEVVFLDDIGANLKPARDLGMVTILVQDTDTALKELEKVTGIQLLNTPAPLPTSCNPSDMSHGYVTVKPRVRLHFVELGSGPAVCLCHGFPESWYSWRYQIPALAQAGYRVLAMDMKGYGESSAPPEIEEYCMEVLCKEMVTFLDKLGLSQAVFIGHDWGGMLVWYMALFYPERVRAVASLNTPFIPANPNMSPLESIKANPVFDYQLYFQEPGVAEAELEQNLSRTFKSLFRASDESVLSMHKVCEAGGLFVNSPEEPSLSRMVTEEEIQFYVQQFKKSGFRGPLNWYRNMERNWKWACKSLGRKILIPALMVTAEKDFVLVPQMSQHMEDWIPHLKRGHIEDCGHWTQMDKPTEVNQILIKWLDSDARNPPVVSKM
Chain of UniProt O42275 (whole entry, looked up): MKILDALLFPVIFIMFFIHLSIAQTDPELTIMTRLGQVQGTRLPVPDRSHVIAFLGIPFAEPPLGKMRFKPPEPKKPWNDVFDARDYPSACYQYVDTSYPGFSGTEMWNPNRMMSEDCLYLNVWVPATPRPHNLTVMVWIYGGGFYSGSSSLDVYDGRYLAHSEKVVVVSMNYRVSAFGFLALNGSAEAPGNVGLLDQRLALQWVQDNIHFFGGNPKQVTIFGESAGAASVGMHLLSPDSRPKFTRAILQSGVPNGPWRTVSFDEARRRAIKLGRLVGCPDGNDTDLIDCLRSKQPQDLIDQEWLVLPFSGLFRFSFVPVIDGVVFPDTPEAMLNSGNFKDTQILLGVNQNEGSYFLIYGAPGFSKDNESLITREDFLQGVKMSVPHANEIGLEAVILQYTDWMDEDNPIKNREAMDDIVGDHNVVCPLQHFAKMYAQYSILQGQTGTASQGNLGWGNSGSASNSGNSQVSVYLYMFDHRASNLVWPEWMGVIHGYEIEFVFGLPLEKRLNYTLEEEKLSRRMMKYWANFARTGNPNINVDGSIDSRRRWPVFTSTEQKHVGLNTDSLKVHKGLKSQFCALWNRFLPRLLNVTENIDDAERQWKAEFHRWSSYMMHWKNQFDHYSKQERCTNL

| SMILES | target or system | test | system | setting | endpoint | result |
| --- | --- | --- | --- | --- | --- | --- |
| O=C(Nc1ccc(-c2cnc3ccccc3c2)cc1)C1CCN(CC2CCCCC2)CC1 | ache (Electrophorus electricus, UniProt O42275) |  |  |  | IC50 | 0.162 µM |
| Cc1cc(OCc2nnc(SC3CCCC3)n2-c2cccnc2)ccc1-c1ccc(S(C)(=O)=O)cc1 | UACC-257 |  |  |  | GI50 | 0.899 µM |
| O=C(Nc1ccc(-c2cnc3ccccc3c2)cc1)C1CCN(Cc2cccc([N+](=O)[O-])c2)CC1 | FAAH (Homo sapiens, UniProt O00519) |  |  |  | IC50 | 0.208 µM |
| O=C(N[C@@H]1CC[C@@]2(O)[C@H]3Cc4ccc(O)c5c4[C@@]2(CCN3CC2CC2)[C@H]1O5)c1ccc(I)cc1 | Oprd1 | agonist |  |  | EC50 | > 10 µM |
| C(#Cc1c[nH]c2nccc(-c3ccncc3)c12)c1cccnc1 |  |  | mouse C57BL/6, male | intravenous, 2 mg/kg | Cmax | 3.98 ± 1.45 µg/mL |
| CN1CC[C@]23c4c5ccc(O)c4O[C@H]2[C@@H](OS(=O)(=O)O)C=C[C@H]3[C@H]1C5 | OPRM1 (Homo sapiens, UniProt P35372) |  |  |  | EC50 | 0.035 µM |
| O=C(Nc1ccc(Cl)c(F)c1)NC1CCN(c2c(NS(=O)(=O)Cc3ccccc3)c(=O)c2=O)CC1 | Ephx2 |  |  |  | IC50 | 1.04 ± 0.0942 µM |
| CC(C)[C@H](NC(=O)[C@H](CC(N)=O)NC(=O)[C@H](Cc1ccc(O)cc1)NC(=O)[C@H](C)NC(=O)[C@H](CCCCN)NC(=O)[C@@H](NC(=O)[C@H](C)NC(=O)[C@@H](NC(=O)[C@H](CCCNC(=N)N)NC(=O)[C@@H](N)CCCCN)[C@@H](C)O)[C@@H](C)O)C(=O)N[C@H](C(=O)N[C@@H](CCC(N)=O)C(=O)N[C@@H](C)C(=O)N[C@@H](Cc1ccccc1)C(=O)NCC(=O)O)[C@@H](C)O | HLA-DRA/HLA-DRB3, 76 (Homo sapiens, UniProt P01903+P79483) |  |  |  | IC50 | 11.7 µM |
| Cc1ccc(S(=O)(=O)Nc2c(N3CCC(NC(=O)Nc4ccc(Cl)c(C(F)(F)F)c4)CC3)c(=O)c2=O)cc1 | Ephx2 |  |  |  | IC50 | 0.0037 ± 0.0003 µM |
| O=C(Nc1ccc(-c2cnc3ccccc3c2)cc1)C1CCN(Cc2ccccc2[N+](=O)[O-])CC1 | EPHX2 (Homo sapiens, UniProt P34913) |  |  |  | IC50 | 0.0084 µM |
| N#Cc1ccccc1 | nitrilase (Rhodococcus rhodochrous, UniProt A4LA85, Y142F) | ammonia release |  | pH 7.5, 25 °C, 10% methanol | Km | 3.45 ± 0.19 mM |
| Cc1ccccc1S(=O)(=O)Nc1c(N2CCC(NC(=O)Nc3cc(F)cc(F)c3)CC2)c(=O)c1=O | Ephx2 |  |  |  | IC50 | 2.63 ± 0.312 µM |
| O=C(N[C@@H]1CC[C@@]2(O)[C@H]3Cc4ccc(O)c5c4[C@@]2(CCN3CC2CC2)[C@H]1O5)c1ccc(C(F)(F)F)cc1 | Oprd1 | agonist |  |  | EC50 | > 10 µM |

Excerpt of the above:
| SMILES | target or system | test | system | setting | endpoint | result |
| --- | --- | --- | --- | --- | --- | --- |
| O=C(Nc1ccc(-c2cnc3ccccc3c2)cc1)C1CCN(Cc2cccc([N+](=O)[O-])c2)CC1 | FAAH (Homo sapiens, UniProt O00519) |  |  |  | IC50 | 0.208 µM |
| O=C(N[C@@H]1CC[C@@]2(O)[C@H]3Cc4ccc(O)c5c4[C@@]2(CCN3CC2CC2)[C@H]1O5)c1ccc(I)cc1 | Oprd1 | agonist |  |  | EC50 | > 10 µM |
